Published values pooled from the literature.
Every numbered part comes from another study and shows a few of its results, in no order.

Block 1
Target: Interferon regulatory factor 7, full length, phosphomimetic (IRF7, Homo sapiens, UniProt Q92985, residues 1-503, S101K/S471D/S472D/S475D/S476D/S477D/S483D/S484D/S487D)
Sequence of UniProt Q92985 (whole entry, unmodified, looked up): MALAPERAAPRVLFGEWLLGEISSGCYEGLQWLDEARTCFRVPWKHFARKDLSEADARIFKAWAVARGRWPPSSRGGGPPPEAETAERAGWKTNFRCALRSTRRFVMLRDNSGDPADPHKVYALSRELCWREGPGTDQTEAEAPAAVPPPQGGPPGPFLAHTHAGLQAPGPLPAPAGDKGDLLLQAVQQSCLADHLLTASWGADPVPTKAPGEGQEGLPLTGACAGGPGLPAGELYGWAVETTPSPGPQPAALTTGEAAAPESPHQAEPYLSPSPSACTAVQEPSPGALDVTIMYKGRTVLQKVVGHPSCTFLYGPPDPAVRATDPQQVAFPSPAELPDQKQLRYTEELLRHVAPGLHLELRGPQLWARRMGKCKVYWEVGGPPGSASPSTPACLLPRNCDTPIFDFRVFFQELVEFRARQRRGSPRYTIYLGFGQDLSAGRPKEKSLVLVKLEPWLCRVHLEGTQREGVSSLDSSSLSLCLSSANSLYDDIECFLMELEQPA
Technique: protein-binding microarray
Molecule type: double-stranded DNA, one strand shown
Medium: in vitro
Concentration: 250 nM
Notes: 60-bp whole probe
Together with: salmon DNA 0.4 mg/ml
Baseline: random background probes
Reading: higher = stronger binding
With `GCCTAGCACGACGGCTTCGACACTGGGGACGTGCTAGTCTTGATTCGCTTGACGCTGCTG` the log fluorescence was -0.515 z-score.
`GCCTAGCACTCAGCTCACACCTGTCATACTGTGCTAGTCTTGATTCGCTTGACGCTGCTG` gave a log fluorescence of -0.493 z-score.
With `GCCTAGCACGACGGTATCGACATTGGGGACGTGCTAGTCTTGATTCGCTTGACGCTGCTG` the log fluorescence was -0.254 z-score.

Block 2
Target: Phosphate system positive regulatory protein PHO4, full length, GST-tagged (PHO4, Saccharomyces cerevisiae, UniProt P07270, residues 1-312)
Technique: competition protein-binding microarray
Molecule type: double-stranded DNA, one strand shown
Medium: in vitro
Concentration: 2 µM
Notes: whole 60-bp probe, lowest competitor level
Together with: Cbf1 competitor, 0.05 µM
Reading: higher = stronger binding
Residues (chain): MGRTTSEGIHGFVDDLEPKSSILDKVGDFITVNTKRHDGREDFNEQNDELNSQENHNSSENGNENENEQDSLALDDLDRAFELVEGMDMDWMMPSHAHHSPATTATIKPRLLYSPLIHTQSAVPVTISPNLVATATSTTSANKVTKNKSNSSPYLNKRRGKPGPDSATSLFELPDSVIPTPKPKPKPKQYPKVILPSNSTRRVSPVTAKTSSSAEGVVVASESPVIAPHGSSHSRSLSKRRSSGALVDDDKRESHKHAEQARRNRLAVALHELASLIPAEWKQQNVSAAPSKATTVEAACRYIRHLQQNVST
The fluorescence intensity of `TTCTGCAGGGCCCGGCCCGGGTCGTCCGGAAAAAGAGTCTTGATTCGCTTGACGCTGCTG` is reported as 2310 a.u.
`AGCGCCTGCGCCCACCACGTGCTGGCAAGAATTGGGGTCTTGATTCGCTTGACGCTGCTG` has a fluorescence intensity of 17400 a.u.
The fluorescence intensity of `CGTCCTAGTGATTGTCACCGTACTTCCATGAGGAAGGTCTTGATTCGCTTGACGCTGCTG` is reported as 4860 a.u.
With `TGCGCAACAACTTGCACCGTGGGTGTATGTCTAGAAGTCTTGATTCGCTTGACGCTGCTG` the fluorescence intensity was 7600 a.u.
For `GTCTTGTCTCATTGCTTGGTGGGTGTCCCCACTTCAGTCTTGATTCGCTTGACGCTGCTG`, the fluorescence intensity was 4790 a.u.
The fluorescence intensity of `TGCGCAACAACTTGTAAAGTGGGTGTATGTCTAGAAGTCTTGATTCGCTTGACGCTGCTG` is reported as 4440 a.u.

Block 3
Target: Histone acetyltransferase KAT6A, winged helix 2, GST fusion (KAT6A, Homo sapiens, UniProt Q92794, residues 85-181)
Technique: protein binding microarray
Molecule type: double-stranded DNA, one strand shown
Medium: in vitro
Concentration: not given
Notes: 8-mer, flanks averaged, mean of 2 arrays, mostly near background
Baseline: not given
Reading: higher = stronger binding
Target sequence (chain): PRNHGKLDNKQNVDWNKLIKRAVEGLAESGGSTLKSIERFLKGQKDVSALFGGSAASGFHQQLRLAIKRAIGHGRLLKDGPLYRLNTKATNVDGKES
With `ACGTGGCA` the E-score was -0.168.
The E-score of `ACAGATCT` is reported as -0.0983.
The E-score of `AGAGCTCA` is reported as -0.11.
For `AACAGATC`, the E-score was 0.049.
With `CGCCTGCC` the E-score was 0.129.
For `GAGCGTAA`, the E-score was 0.0404.
`CGCTGTGA` gave an E-score of -0.0997.
`AGCGAGGA` gave an E-score of 0.0746.
`ATGATGGA` has an E-score of -0.147.
`ATACCCAA` has an E-score of -0.0462.

Mixed results
`PhoQ, residues 284 288 289 292 302 303 SSTMSV` gave a fold induction of 21.4 (PhoP, residues 12 14 15 18 19 MHTVL (Escherichia coli, UniProt P23836); Sort-seq, measured: YFP reporter; E. coli; PhoQ-PhoP variant library, together with: 10 µM Mg2+; baseline: high Mg2+ state, higher = stronger signaling).

Some of these lines once more (block 2):
For `GTCTTGTCTCATTGCTTGGTGGGTGTCCCCACTTCAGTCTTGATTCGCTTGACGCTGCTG`, the fluorescence intensity was 4790 a.u.
